Measurements from different studies.
Lines come from different studies, so protocols differ.
PRMT5: Protein arginine N-methyltransferase 5 (PRMT5, Homo sapiens, UniProt O14744)
Sequence of UniProt O14744 (whole entry, looked up): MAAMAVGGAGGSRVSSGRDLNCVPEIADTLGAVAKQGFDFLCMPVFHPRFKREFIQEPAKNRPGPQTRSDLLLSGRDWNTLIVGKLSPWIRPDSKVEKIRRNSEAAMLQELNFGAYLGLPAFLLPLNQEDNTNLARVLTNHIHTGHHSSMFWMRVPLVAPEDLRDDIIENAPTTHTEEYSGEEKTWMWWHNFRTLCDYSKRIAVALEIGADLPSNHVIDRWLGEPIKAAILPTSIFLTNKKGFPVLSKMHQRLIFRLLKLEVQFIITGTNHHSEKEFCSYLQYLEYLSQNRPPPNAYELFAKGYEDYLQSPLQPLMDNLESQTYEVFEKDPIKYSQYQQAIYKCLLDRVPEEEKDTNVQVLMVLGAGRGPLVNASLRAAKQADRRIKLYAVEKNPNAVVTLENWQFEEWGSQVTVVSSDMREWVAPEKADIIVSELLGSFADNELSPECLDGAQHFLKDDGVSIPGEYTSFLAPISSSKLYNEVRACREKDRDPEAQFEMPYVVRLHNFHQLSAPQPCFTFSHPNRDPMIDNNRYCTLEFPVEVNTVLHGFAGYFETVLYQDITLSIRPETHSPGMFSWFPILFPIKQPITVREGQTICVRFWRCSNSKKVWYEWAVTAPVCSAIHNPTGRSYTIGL
Rps6ka1: Ribosomal protein S6 kinase alpha-1 (Rps6ka1, Rattus norvegicus, UniProt Q63531)
Sequence of UniProt Q63531 (whole entry, looked up): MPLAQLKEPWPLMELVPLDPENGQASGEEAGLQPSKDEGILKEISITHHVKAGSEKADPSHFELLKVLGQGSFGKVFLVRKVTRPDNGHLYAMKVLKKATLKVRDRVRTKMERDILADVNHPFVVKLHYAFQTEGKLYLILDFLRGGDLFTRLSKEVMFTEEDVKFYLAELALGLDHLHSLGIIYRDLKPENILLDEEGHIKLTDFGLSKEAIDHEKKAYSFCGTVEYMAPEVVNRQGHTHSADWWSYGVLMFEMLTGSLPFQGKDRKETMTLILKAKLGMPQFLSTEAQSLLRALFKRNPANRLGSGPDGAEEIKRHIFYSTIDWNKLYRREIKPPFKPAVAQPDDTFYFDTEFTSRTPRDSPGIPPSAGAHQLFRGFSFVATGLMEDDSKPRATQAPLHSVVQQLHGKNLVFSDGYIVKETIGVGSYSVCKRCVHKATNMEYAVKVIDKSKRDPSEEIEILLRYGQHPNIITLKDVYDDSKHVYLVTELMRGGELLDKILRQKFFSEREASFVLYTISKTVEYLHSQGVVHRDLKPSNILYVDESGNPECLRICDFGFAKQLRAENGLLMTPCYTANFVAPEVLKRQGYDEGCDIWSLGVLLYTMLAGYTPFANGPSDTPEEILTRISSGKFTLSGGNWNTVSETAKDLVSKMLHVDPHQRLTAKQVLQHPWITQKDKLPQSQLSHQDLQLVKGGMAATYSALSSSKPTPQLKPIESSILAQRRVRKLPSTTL
IL1RL2: Interleukin-1 receptor-like 2 (IL1RL2, Homo sapiens, UniProt Q9HB29)
Sequence of UniProt Q9HB29 (whole entry, looked up): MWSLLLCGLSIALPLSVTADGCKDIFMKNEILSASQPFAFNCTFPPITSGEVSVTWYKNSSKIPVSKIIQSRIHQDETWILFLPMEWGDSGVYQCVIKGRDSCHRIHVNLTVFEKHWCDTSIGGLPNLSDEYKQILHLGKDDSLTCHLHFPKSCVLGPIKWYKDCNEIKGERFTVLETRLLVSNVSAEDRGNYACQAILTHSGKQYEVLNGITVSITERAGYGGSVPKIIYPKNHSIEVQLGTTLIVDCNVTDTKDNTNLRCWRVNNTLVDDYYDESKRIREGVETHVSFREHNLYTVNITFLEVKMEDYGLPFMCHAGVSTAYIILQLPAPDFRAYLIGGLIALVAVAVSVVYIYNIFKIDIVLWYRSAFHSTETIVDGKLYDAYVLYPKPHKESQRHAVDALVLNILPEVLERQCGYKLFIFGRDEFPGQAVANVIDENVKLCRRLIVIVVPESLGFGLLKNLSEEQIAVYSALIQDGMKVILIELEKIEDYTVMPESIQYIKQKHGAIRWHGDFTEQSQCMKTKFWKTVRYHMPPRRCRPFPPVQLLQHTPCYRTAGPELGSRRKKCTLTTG
GBA2: Beta-glucosidase (GBA2, Homo sapiens, UniProt Q9HCG7)
Sequence of UniProt Q9HCG7 (whole entry, looked up): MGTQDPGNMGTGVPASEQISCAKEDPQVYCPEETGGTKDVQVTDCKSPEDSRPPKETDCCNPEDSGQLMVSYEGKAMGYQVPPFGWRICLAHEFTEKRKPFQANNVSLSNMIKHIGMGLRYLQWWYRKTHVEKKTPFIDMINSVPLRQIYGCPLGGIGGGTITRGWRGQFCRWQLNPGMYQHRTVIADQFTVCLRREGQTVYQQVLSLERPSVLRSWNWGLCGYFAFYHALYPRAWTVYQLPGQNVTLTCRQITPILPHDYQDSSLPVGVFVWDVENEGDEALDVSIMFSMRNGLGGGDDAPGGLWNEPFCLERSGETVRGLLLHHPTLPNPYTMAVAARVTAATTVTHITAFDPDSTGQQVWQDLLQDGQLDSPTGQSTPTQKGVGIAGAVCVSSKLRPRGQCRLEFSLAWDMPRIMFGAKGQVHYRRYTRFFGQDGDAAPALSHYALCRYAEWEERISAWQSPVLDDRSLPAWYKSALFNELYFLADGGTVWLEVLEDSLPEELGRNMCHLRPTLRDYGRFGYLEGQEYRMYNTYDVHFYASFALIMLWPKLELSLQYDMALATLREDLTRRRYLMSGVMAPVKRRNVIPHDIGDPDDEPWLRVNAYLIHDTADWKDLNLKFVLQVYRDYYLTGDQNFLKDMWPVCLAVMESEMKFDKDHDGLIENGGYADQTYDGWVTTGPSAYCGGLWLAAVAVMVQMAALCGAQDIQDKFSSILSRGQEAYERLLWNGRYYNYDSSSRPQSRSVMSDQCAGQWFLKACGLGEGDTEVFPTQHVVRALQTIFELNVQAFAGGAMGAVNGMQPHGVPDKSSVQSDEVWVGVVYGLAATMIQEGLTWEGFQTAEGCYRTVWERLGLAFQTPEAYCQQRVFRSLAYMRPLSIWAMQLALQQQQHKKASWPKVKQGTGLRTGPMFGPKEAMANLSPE
Sequence of UniProt P45983 (whole entry, looked up): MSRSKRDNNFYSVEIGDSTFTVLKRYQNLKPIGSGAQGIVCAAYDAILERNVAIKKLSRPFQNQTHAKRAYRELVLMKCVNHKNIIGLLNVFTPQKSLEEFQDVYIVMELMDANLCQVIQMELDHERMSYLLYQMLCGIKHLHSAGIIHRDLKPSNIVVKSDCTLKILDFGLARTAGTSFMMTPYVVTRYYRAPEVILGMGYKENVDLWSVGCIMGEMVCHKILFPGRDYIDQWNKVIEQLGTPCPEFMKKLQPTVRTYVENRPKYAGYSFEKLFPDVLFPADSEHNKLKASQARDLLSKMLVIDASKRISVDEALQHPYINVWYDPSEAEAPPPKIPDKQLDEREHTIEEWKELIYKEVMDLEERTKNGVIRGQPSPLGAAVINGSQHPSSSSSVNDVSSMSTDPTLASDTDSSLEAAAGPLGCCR
Sequence of UniProt P00519 (whole entry, unmodified, looked up): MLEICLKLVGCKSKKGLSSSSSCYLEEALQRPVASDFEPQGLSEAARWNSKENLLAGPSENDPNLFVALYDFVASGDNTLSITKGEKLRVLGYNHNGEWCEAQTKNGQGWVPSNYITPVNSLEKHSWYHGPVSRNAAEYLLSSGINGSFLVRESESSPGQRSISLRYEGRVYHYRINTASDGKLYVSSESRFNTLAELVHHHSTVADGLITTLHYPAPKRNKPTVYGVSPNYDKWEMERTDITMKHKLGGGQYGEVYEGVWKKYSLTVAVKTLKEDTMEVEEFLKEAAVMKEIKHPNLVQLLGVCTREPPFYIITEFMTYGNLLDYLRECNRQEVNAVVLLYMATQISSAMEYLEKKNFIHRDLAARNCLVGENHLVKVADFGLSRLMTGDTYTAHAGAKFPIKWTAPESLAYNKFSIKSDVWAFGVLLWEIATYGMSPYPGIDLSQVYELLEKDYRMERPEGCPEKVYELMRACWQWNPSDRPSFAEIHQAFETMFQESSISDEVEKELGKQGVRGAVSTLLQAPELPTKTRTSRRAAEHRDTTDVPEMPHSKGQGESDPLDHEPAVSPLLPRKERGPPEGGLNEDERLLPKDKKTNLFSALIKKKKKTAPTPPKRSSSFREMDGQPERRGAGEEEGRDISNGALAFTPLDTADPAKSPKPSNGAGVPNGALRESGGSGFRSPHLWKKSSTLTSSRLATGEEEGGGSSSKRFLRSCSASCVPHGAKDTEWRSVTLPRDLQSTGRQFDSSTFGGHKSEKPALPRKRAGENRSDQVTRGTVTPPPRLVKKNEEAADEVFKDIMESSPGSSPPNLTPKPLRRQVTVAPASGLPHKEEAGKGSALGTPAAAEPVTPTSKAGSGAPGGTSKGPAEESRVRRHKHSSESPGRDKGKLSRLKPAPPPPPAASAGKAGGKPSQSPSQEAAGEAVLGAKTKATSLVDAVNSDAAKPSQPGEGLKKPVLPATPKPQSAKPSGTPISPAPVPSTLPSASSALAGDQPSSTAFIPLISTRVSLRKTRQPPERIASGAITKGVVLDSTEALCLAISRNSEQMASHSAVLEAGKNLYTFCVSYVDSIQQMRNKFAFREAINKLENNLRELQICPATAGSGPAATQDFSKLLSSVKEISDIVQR

N=C(N)c1ccc(-c2ccc(-c3ccc(C(=N)N)cn3)o2)cc1  remaining activity (PRMT5; enzyme activity, inhibitor, radiometric; 20 µM): 102%
O=c1c(-c2ccc(Cl)c(CN3CCOCC3)c2)coc2cc(O)ccc12  remaining activity (Rps6ka1; enzyme activity, inhibitor; 1 µM): 94%
CC(C)[C@@H]1NC(=O)[C@H](Cc2ccccc2)NC(=O)CSC[C@@H](C(N)=O)NC(=O)[C@H](CCC(=O)O)NC(=O)[C@H](CO)NC(=O)[C@H](Cc2c[nH]c3cccc(Cl)c23)NC(=O)[C@H](C2CCCCC2)NC(=O)[C@H](C(C)C)NC(=O)[C@H](Cc2ccc(O)cc2)NC(=O)[C@H](CC(=O)O)NC(=O)[C@H](Cc2c[nH]c3ccccc23)NC(=O)[C@H](Cc2ccc(N)nc2)NC(=O)[C@H](Cc2c[nH]c3ccc(Cl)cc23)NC(=O)[C@H](CCC(=O)O)NC1=O  remaining activity (IL1RL2; reporter gene (SEAP), inhibitor, HEK-Blue IL-36R reporter; HEK-Blue IL-36R cells; 0.046 µM, 6 h, with: IL-36β 0.1 ng/mL): 63.2%
COC(=O)[C@@]1(C)C=C(C(=O)Nc2cccc(C(=O)Nc3ccc(Nc4nccc(-c5cccnc5)n4)c(C)c3)c2)C(=O)CC1  remaining activity (Mitogen-activated protein kinase 8, phosphorylated (MAPK8, Homo sapiens, UniProt P45983); enzyme activity after dialysis, inhibitor; 10 µM, 1 days, unit not given; relative to: no inhibitor): 0.0928
OC[C@@H]1[C@@H](O)[C@H](O)[C@@H](O)CN1CCCCCOCc1ccc(-c2cncnc2)cc1  selectivity ratio (GBA2; inhibitor, 4MU-β-D-glucopyranoside; HEK293T homogenates overexpressing GBA2; relative to: GCS IC50 over GBA2 IC50): 80
CC(C)(C)OC(=O)NC(Cc1cccc(Cl)c1)C(=O)NCC=CS(=O)(=O)c1ccccc1 (stereo not shown)  remaining activity (Cathepsin B (CTSB, Homo sapiens, UniProt P07858); inhibitor; 5 µM, 60 min, with: Z-Arg-Arg-pNA; relative to: uninhibited control): 26%
O=C=[N][Ru-4]123([n]4c5ccc(O)cc5c5c6c(c7cc(F)c[n+]1c7c54)C(=O)NC6=O)[S+]1CC[S+]2CC[S+]3CC1 (stereo not shown)  remaining activity (RET (Homo sapiens, UniProt P07949); enzyme activity; 100 nM, human enzyme, with: 10 µM ATP; relative to: untreated): 45%
OC[C@@H]1[C@@H](O)[C@H](O)[C@@H](O)CN1CCCCCOCc1ccc(-c2ccc3c(c2)OCCCO3)cc1  selectivity ratio (GBA2; inhibitor, 4MU-β-D-glucopyranoside; HEK293T homogenates overexpressing GBA2; relative to: GCS IC50 over GBA2 IC50): 2
N=C(N)c1ccc(-c2ccc(-c3ccc(C(=N)N)cc3)[nH]2)cc1  remaining activity (PRMT5; enzyme activity, inhibitor, radiometric; 20 µM): 67.9%
COC1CN([C@H]2CC[C@H]([C@@]3(C)Oc4c(Cl)cc(C(=O)NCc5c(SC)cc(C)[nH]c5=O)c(C)c4O3)CC2)C1  log2 fold change (RNA-seq, item: PLS1; human, whole blood; dose not given, 24 h; relative to: pretreatment baseline): 1.57
C=CC(=O)N1CCCC(n2c(=O)c3ncccc3n(Cc3ccc(Oc4ccccc4)cc3)c2=O)C1 (stereo not shown)  remaining activity (ABL1 (Homo sapiens, UniProt P00519, M351T); kinase activity; 1 µM): 82%
COc1ccccc1-c1ccncc1C(=O)Nc1nnc(OCc2ccc(Cl)cc2)s1  remaining activity (DNA polymerase theta, helicase domain (POLQ, Homo sapiens, UniProt O75417); ATPase activity, ADP-Glo; 0.004 µM, with: ATP 400 µM): 93%
COc1ccc(-c2ccc(-c3ccc(C(=N)N)nc3)o2)cc1  remaining activity (PRMT5; enzyme activity, inhibitor, radiometric; 20 µM): 66%
N#Cc1cnc2sc(C(=O)O)cc2c1N1CCc2[nH]nc(C(=O)N[C@@H](CC(=O)NCCOCCN3CCOCC3)c3cccc(Br)c3)c2C1  remaining activity (IL1RL2; SEAP reporter gene, antagonist; HEK-Blue IL-36R cells; 0.41 µM, 6 h, with: IL-36β 0.003 ng/mL; relative to: untreated): 104%
N=C(NCC1CC1)c1ccc(-c2ccc(-c3ccc(C(=N)NCC4CC4)cc3)o2)cc1  remaining activity (PRMT5; enzyme activity, inhibitor, radiometric; 20 µM): 58%
COc1ccc(NC(=O)Nc2ccc3c(c2)C(=O)N(C(C)CO)CC(C)C(CN(C)Cc2ccc4c(c2)OCO4)O3)cc1 (stereo not shown)  remaining activity (Rps6ka1; kinase activity, KinaseProfiler; 0.03 µM, species rat; relative to: control): 104%

A few entries again:
N=C(N)c1ccc(-c2ccc(-c3ccc(C(=N)N)cc3)[nH]2)cc1  remaining activity (PRMT5; enzyme activity, inhibitor, radiometric; 20 µM): 67.9%
